# Experimental data pooled from the literature.
# Parts stem from different laboratories: compare values within a part only. Changes are numbered by the printed parent chain.

# Series 1 — technique: RNA Bind-n-Seq; molecule type: RNA; matrix: in vitro; tested at: 365 nM; relative to: no-protein control; direction: higher = stronger binding
# Target: RNA binding protein fox-1 homolog 2, RRM domain, GST-SBP tag (RBFOX2, Homo sapiens, UniProt O43251-10, residues 100-194)
# Notes: natural RNA segment, single round, ends assumed
# Construct (chain): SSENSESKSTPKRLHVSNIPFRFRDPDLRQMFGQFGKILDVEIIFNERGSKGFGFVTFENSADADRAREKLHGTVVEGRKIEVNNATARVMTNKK
Oligonucleotide,RBNS enrichment (R)
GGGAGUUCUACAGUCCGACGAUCCUCCACAAGGGACCCUUGAGAUCACUGACACAUCACCCCCAUUUCUCUGCUGGAAAAAACCAGAAUCCAGGAGGGGUUGUGACCUGCCCAAGACCAAGGGCAGUUUAGGGUGGAAUUCUCGGGUGCCAA,0.244
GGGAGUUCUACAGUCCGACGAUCCCUGAGGUACUCUGCUGAGUGGGCAAGGCUGAAGAAGAGGCCUGUGGAAUGCAGCAUUACCUGCUGGACAGAGCAGGGCAGGCAGUUCUAUGCCUUGGAGCUCCUGACUGUGGAAUUCUCGGGUGCCAA,2.92
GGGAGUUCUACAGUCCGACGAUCCUGUGGCACCAGCUAGCUGCAGGUGCAGGGGAUGGCGGGAGUGAGGCUGUGUCUGCGGAUGGCUGGGGUCACUUCUCUGCCCAUGGGCUCCCUGCUCCCCCAGUUUUUUUUGGAAUUCUCGGGUGCCAA,0.379
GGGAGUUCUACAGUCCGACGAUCGCUUGCUGGAAGGGUAGUAUUAACUAUUUAACAUGUAAUGGUGUACUUCACUCUUACCUAGCACGCUGUCUUCUCAUUGCUUUGGGGGAGGGAGGGUCUCUCUGCUGGCAUGGAAUUCUCGGGUGCCAA,1.02
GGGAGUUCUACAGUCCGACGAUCCUCUCUCUGGCGCACUUUCCUGAAGCCUCUUAUUAACUCCCAUCUCCAGAAGCACCUCAACAAUGUCAGUGGCUGAGGCUGCACUCAGAGGGAUGACUGCUGGGGGUAGAUGGAAUUCUCGGGUGCCAA,0.474
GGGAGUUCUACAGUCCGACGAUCUAUAGAGAAAAAUAGAAAGAUAAAAUGUAAAAUCAAAUCUUCAGGCAAUCUUACAAUUUGACCAGAGAAUAUUUUUUAUUAGUACUAGUUGUUAUUACCUAUAAUUGAGAUGGAAUUCUCGGGUGCCAA,0.402
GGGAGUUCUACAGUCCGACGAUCAGUACAGUCAACCUAUCAGAGAGACAAGGGUGAUGCCCCGGUGAGUGUGUCUCAGCUGUGUUUAUGAAUUUGUUUGGUUCACACAUAUCUGAGUGGUAUGGAUAACUGGGUGGAAUUCUCGGGUGCCAA,1.51
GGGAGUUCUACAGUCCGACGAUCUUCCAGGCCUGCCUGCCGUGGAGUUGACUGGGGGAAUUUUACAGUUUUGCGAUCCUAGGAUGCGUCCCAGACGCUCAGUCAGAAGUGCUGGAGGUGGGGCCUGGGAAGCUUGGAAUUCUCGGGUGCCAA,0.567
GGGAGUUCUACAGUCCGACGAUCCCAUCAGUCCCGUCCGUCUGUCGCCUUCCCGCAAGCGUCAUCAUCGAAGCCACUGCUCCUGGGAGCACACAAGCUUCUCCCUGGAACAGCUCUUAGGAAAAGAGGCAAACUGGAAUUCUCGGGUGCCAA,0.179

# Series 2 — technique: RNA Bind-n-Seq; molecule type: RNA; matrix: in vitro; tested at: not given; relative to: input RNA pool; direction: higher = stronger binding
# Target: RING finger protein unkempt homolog, zinc fingers 1-6, GST-SBP tag (UNK, Homo sapiens, UniProt Q9C0B0, residues 30-357)
# Chain of UniProt Q9C0B0 (30-357, looked up): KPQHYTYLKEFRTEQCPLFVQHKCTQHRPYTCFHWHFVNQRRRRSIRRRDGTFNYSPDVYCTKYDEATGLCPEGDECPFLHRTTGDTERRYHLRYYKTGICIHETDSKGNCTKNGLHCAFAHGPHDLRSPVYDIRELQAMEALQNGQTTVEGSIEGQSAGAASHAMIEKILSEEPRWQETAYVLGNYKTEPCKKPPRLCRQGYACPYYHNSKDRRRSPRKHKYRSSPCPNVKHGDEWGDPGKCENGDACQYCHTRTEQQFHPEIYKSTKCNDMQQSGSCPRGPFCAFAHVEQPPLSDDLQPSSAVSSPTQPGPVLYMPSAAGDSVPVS
# Notes: RNA with constant flanks, human-mouse chimeric sites, ends assumed
Oligonucleotide,bound/input enrichment
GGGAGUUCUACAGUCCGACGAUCAAAGUGGACUAUGGUGAGUACAUGGAUAAAAACAAUGUGAGGCGACAAGCAACAACAAUCAUAGCUGAUAACAUUAUAUUUCUGAGUGACCAGACAAAAGAAAAGGCAUAGAACGGAUGACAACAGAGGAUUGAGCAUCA,1.46 ratio
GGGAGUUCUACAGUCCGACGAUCCUGUGUGUGCUGAAUAAAUGGCUUGUAAAGAAGUUUUUCCAAGCUGUAACCCAUGCUGUUAUUAUAGUUGCUGCAAAAUGUUCUUCCUGAUAUUGAUGUUUGUUUACAACUGAAGGUCUCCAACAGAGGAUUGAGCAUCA,0.206 ratio
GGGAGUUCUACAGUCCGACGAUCGCUCUUGGGAAUGUAAUCAGCGCCUUGGGGGACAAGAGCAAGAGGGCCACCCAUGUCCCUUACAGAGACUCUAAGCUGACAAGACUCCUACAGGAUUCCCUUGGGGGUAACAGCCAAACCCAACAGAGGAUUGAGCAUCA,0.209 ratio
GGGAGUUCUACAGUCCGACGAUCAAUUUCCUGUCAUACUUUUUAGACAUUGCCAUAGGUAUUACAGAGCACCUGGCCACAUUCUAGGUUUGUGUUAUUUCUCAGCUAUGGGGGUAUGAUUAUGAGAACACUGCUUAACUAAUGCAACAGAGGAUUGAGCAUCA,1.73 ratio
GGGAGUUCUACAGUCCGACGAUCCGGAGCCCUCCUCUCCCACAGGCCCAAGAUAUAACCCACCAGUGCCUUUUGUCUUCCUGUCAGCUCUGUCAAUCACGCCUGUCCUCUCACGCCCACACUCCCCAGCCAAAGUGGGGAGGGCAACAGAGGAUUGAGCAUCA,0.615 ratio
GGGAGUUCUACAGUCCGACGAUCAAUAGAGGAUCCACCUCCCAAAGUGCUGGGAGUAAAGGUGUGGCCACCACACCUAACUUGAUGGAUAUAUAUUUUUUUUAAUAUGAAUCUUCCUGUUCGUCCAGGGAAGAAAGAUUUGUUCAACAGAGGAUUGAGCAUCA,2.95 ratio
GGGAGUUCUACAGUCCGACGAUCAAAGAGAAAGCUAAAACACUAAUAGAGGAAGAGGAUUGCAAAGAGAAUUUCAUAGAGAAACUAGGAUUUAUUAGCAAACAUGAGUUAUAUUCCAGAGCGUCUCAGAAACCCCAGCCAAACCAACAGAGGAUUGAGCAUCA,6.38 ratio
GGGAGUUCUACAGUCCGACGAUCUAAGUUAAGCUUUUAAUCUUUGUAAAUUCUUAACAUUUUUAUAUUGCCAUGUUUAUUUUGUUUGGGUAAUUUGGUUCAUUAAGUACAAAACCAAAUAAAUGAACAUCUUUUUCAGUAAUUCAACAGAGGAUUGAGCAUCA,0.772 ratio
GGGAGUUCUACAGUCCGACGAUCCACAGAGGCACCACCCCCUCCUCCUUCUUUCCACACCUGCAAACUCUUUUACUUGGGCUGAAUAUUUAGUGUAAUUACAUCUCAGCUUUGAGGGCUCCUGUGGCAAAUUCCCGGAUUAAACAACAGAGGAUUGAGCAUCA,0.835 ratio
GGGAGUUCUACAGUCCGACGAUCCUGUGUGUGCUGAAUAAAUGGCUUGUAAGAACUGUCCUCCAAGCUGUACCCAUGUACGUUAUUAUAGUUGCUGCAAAAUGUUCUUCCUGAUAUUGAUUUUAUUUGUUAACUGAAGGUCUCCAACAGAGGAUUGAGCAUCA,0.798 ratio
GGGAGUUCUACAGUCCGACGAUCGAGCCCAGUCGGCAGUUUGUAAAGGACUCAAUUCGGCUGGUUAAAAGAUGCACCAAACCCGACAGAAAAGAAUUCCAGAAGAUUGCCAUGGCUACAGCUAUAGGAUUUGCUAUAAUGGGACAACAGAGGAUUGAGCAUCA,0.396 ratio

# Series 3 — target: OGT, full length, His-tagged (human); technique: phage display, sequencing; matrix: in vitro; tested at: 1 µg OGT; relative to: input library; direction: higher = stronger binding; starting sequence: peptide; GDFPVMFMPKYSIIY
# Notes: single substitutions, 15-mer displayed peptide, unchanged parent 5.27
Change,fold enrichment [fold]
GDFPVMFMPKYSIVY [I14V],3.77
GDFQVMFMPKYSIIY [P4Q],7.14
GDFPVMPMPKYSIIY [F7P],0.884
GDFPVMFMPKYQIIY [S12Q],17.3
GDFPVMFMPKYSSIY [I13S],0.841
GDHPVMFMPKYSIIY [F3H],7.44
GDNPVMFMPKYSIIY [F3N],5.58
GDFPVMFMPKDSIIY [Y11D],0.445
GDFPVMFMPKESIIY [Y11E],0.993
GDFPVLFMPKYSIIY [M6L],16.6
GDFPVQFMPKYSIIY [M6Q],7.29
GDFPVMFMPWYSIIY [K10W],3.23
GDFPVMFDPKYSIIY [M8D],1.1
MDFPVMFMPKYSIIY [G1M],5.39

# Series 4 — technique: protein-binding microarray; molecule type: double-stranded DNA, one strand shown; matrix: in vitro; tested at: 2200 nM top; notes: 60-bp whole probe; added: salmon DNA 0.4 mg/ml; relative to: random background probes; direction: higher = stronger binding; all sequences stand within: GCCTAGCAC … GTCTTGATTCGCTTGACGCTGCTG
# Target: Interferon regulatory factor 7, full length, phosphomimetic (IRF7, Homo sapiens, UniProt Q92985, residues 1-503, S471D/S472D/S475D/S476D/S477D/S483D/S484D/S487D)
# Chain of UniProt Q92985 (whole entry, unmodified, looked up): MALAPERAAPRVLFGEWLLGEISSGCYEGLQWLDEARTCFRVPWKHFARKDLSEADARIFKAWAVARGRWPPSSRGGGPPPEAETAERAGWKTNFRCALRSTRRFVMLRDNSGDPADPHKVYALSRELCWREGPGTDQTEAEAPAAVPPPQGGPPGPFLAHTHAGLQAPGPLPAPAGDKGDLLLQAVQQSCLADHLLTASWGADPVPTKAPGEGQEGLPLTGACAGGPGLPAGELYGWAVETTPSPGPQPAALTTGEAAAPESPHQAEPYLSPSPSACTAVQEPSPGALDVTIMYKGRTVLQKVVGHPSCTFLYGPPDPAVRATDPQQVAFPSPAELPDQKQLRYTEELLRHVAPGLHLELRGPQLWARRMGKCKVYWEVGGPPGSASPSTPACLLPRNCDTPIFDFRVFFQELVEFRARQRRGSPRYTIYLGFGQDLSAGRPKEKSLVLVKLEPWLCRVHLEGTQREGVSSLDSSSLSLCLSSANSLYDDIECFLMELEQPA
Oligonucleotide,fitted relative affinity [z-score]
GACGATTTCAAACTGGAGACGTGCTAG,-0.183
TTCCATTTCTGTTTTTGCTTGTGCTAG,4.65
GACGAACTGCGTTTCGAGACGTGCTAG,1.13
TTACATTTCAGTCTCGATTAGTGCTAG,2.5
GACGGTTTCGGTATCGGGAGGTGCTAG,8.21
TCATATATGACAATGATACTGTGCTAG,0.595
TTAGGACTGGACTTTAGGTTAGTGCTA,-0.674
TTAGGTTTCAACTATCGGTTAGTGCTA,0.755
TTAGGACTGCTTCTGCTTTAGTGCTAG,0.0304
GACGGTTCCCCTTTCCTGACGTGCTAG,2.16
GACGGTTTCGGGTATGGGGACGTGCTA,5.44
TTAGAACTGAGTATCGACTAGTGCTAG,-0.532
GACGGACTGGGACTGGGGCCGTGCTAG,-0.992
TTAGGTTCCTTTTTCCTTTAGTGCTAG,3.51
GACGGTTTCCGTCTCCTGACGTGCTAG,3.13
ATAGGTATCGACTTTCGGTTAGTGCTA,6.27
ATGAAAATCTCAATGGGTTAGTGCTAG,-0.387
TTAGGTATCAACTTTCGGTTAGTGCTA,6.67
GATGGTATCGACTATCGGGACGTGCTA,0.0743
GGCGGTTTCGGACTGGGGACGTGCTAG,3.2
GACGGTTTCCTTCTCCTGGCGTGCTAG,2.97
TTAGACATCGGGTATCGATTAGTGCTA,-0.0603
CACGAACTGGGGACTGGAGACGTGCTA,-0.482
TTAGGTTTCGGTTCCGGTTTGTGCTAG,12.6
GACGGACTGGACTATTGGGACGTGCTA,-0.941

# For quick reference, copied from above (series 4):
Oligonucleotide,fitted relative affinity [z-score]
TTAGGTATCAACTTTCGGTTAGTGCTA,6.67
GATGGTATCGACTATCGGGACGTGCTA,0.0743
GGCGGTTTCGGACTGGGGACGTGCTAG,3.2
GACGGTTTCCTTCTCCTGGCGTGCTAG,2.97
